Measured values from different studies.
Each numbered part is a random draw from the data of one study; scales do not carry over between parts. Values joined by “and” are separate records of one study, mostly repeats; a detail may differ. Changes are numbered by the printed parent chain.
Sequence of UniProt Q9NQU5 (whole entry, looked up): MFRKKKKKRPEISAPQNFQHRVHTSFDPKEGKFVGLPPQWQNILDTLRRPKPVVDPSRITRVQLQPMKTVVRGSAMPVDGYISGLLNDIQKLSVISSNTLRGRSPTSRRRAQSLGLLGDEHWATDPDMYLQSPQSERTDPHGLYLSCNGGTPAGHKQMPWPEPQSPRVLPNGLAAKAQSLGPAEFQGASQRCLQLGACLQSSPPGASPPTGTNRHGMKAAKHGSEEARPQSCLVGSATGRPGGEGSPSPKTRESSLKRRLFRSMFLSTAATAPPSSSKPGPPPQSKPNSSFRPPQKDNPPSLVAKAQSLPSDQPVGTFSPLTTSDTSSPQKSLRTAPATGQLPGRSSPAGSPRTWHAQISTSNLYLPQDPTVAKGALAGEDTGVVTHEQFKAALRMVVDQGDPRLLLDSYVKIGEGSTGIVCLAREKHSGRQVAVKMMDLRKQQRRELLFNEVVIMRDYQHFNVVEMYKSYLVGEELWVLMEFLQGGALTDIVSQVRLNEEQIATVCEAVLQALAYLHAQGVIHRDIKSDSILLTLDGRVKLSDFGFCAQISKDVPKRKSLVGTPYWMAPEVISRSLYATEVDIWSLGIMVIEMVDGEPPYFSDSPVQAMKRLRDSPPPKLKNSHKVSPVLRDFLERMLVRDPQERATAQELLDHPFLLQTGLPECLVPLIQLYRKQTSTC

Sample 1
Target: tungstate, free oxyanion
Technique: microfluidic competitive inhibition
Medium: in vitro, cell-free expressed
Concentration: not given
Setting: derived from inhibition constants, unchanged parent 2230 nM
Direction: lower = stronger binding
Measurement: oxyanion analog dissociation constant
Parent: PafA, mature enzyme, eGFP fusion (Elizabethkingia meningoseptica, UniProt Q9KJX5); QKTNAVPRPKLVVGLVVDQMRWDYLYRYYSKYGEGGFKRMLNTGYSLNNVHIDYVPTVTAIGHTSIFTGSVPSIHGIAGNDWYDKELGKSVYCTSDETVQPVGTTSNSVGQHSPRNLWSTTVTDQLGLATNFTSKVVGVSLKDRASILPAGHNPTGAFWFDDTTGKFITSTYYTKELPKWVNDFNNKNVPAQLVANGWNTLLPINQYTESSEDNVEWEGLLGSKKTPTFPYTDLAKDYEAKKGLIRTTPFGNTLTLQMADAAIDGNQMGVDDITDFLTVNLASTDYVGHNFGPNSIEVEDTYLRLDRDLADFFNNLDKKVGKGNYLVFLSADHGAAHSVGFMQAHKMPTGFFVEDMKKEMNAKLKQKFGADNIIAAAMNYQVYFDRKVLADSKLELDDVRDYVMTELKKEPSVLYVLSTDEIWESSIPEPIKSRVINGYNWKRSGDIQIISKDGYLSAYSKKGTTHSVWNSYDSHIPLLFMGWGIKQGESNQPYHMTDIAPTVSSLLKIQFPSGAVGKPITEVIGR
Change = E297V; value = 553 nM
Change = D271G; value = 2150 nM
Change = M360V; value = 2060 nM
Change = A335G; value = 1680 nM
Change = G88A; value = 2300 nM
Change = G514A; value = 1650 nM
Change = V353A; value = 2610 nM
Change = L407G; value = 1860 nM

Sample 2
Target: UDP-N-acetylglucosamine--peptide N-acetylglucosaminyltransferase 110 kDa subunit (OGT, Homo sapiens, UniProt O15294)
Sequence of UniProt O15294 (whole entry, looked up): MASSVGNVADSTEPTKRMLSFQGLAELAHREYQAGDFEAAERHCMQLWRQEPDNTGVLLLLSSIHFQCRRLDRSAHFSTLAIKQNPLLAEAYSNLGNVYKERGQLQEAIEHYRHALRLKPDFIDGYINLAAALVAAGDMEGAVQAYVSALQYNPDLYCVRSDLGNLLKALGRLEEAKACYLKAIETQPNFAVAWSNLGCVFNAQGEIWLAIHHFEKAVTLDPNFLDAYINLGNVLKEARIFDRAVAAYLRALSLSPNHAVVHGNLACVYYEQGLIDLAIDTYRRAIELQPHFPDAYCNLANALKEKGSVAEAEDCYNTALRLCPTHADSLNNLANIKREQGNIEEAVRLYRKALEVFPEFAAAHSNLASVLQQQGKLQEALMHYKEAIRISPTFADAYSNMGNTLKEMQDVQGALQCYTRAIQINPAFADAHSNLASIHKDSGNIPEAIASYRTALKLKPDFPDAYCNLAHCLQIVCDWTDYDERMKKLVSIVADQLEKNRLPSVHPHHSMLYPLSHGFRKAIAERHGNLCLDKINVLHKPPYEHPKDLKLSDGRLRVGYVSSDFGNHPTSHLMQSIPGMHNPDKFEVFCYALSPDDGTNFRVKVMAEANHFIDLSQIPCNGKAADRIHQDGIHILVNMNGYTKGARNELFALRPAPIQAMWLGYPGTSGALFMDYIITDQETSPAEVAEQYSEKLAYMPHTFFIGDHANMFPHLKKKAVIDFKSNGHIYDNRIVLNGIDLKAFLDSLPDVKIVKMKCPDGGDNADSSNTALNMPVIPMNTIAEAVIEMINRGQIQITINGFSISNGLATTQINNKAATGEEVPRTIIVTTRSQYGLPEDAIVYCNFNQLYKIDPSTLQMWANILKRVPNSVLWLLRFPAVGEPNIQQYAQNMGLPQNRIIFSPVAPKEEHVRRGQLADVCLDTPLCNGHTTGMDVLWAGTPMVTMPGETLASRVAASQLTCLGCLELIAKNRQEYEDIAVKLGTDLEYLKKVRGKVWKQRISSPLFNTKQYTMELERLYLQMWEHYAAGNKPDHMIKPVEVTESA
Effect on: phage display binding
Technique: phage display panning NGS
Molecule type: peptide
Relative to: OGT-panned over input library
Measurement: log2 fold enrichment
Sequence = HFKWYGWSEMDQHTH; value = 4.28
Sequence = TWFQHPSNPSHINQS; value = 2.56
Sequence = HYDHNQWIHSSFHDH; value = 2.33
Sequence = QYLHPHHHFAGMTG; value = 2.27
Sequence = VTPMHDHFHHINMSV; value = 2.88
Sequence = YGEGYITRHTTYHQH; value = 2.22
Sequence = HSYHHDSVHAGHNIV; value = 2.26
Sequence = SSYMPQYQISFLKKE; value = 6.02

Mixed results
Structure (SMILES) = O=C1NC(=O)c2c1c1c3ccccc3n3c1c1c2c2ccccc2n1[C@H]1CC[C@@H]3O1; target or system = Serine/threonine-protein kinase PAK 6 (PAK6, Homo sapiens, UniProt Q9NQU5); test = enzyme activity, inhibitor; conditions = 0.5 µM; how to read = relative to: control; measurement = remaining activity; value = 85.4%
Structure (SMILES) = CN(N=O)C(=O)N[C@@H]1[C@@H](O)[C@H](O)[C@@H](CO)O[C@@H]1O; test system = mice, STZ diabetic neuropathy; conditions = dose not given, 7 days after STZ; measurement = body weight; value = 31 g and 34.8 g and 35 g and 36.5 g
